Experimental data pooled from the literature.
Parts stem from different laboratories: compare values within a part only. Positions count from the first letter of the parent shown.

Set 1
Target: CCNE1, cyclin fold, Cln2 fusion (human)
Technique: yeast growth competition, sequencing
Medium: yeast
Setting: strong parent motif
Relative to: not given
Reading: higher = stronger binding
Starting sequence: RBL2 docking peptide (human); STTRRRLFVENDS
Variant	normalised enrichment score
STTRRRLFVENRS [D12R]	3.69
STTRRRLFDENDS [V9D]	5.6
STTRRRLPVENDS [F8P]	0.654
STIRRRLFVENDS [T3I]	5.02
STTRRRLFVGNDS [E10G]	4.05
STTRPRLFVENDS [R5P]	0.253
STTRRRLFVTNDS [E10T]	3.4
STTSRRLFVENDS [R4S]	1.86

Set 2
Target: Cellular tumor antigen p53, full length (TP53, Homo sapiens, UniProt P04637, residues 1-393)
Technique: protein-binding microarray
Molecule type: hairpin DNA
Medium: in vitro
Concentration: not given
Setting: whole hairpin DNA, median over replicate spots
Relative to: not given
Reading: higher = stronger binding
Oligonucleotide	median fluorescence
CCACACGTGGTGCGATGCCTTCCTAGGCATCGCACCACGTGTGGACACTC (5mC at 13)	4620 a.u.
CCAGACGTGGTGGCATGCCTTCCTAGGCATGCCACCACGTCTGGACACTC	8740 a.u.
CGGACATCGCCGGGCATGTCTCCTGACATGCCCGGCGATGTCCGACACTC	11700 a.u.
CGGACATGCCCCGGCATGTCTCCTGACATGCCGGGGCATGTCCGACACTC (5mC at 12 32)	12500 a.u.
CCACACGTTGTGGCATGCCTTCCTAGGCATGCCACAACGTGTGGACACTC	7960 a.u.
CCACACGTGGTGGCTTGCCTTCCTAGGCAAGCCACCACGTGTGGACACTC	5060 a.u.
CGGACTTGCCCGGGCATGTCTCCTGACATGCCCGGGCAAGTCCGACACTC	15900 a.u.
CGGACATGCCCGCGCATGTCTCCTGACATGCGCGGGCATGTCCGACACTC	12500 a.u.

Further values, each from its own experiment
Substance	target or system	test	system	conditions	quantity	value
SRSF4 (Homo sapiens, UniProt Q08170)	SRSF7 (Homo sapiens, UniProt Q16629)	cross-linking MS	cell fractions	with: DSSO	cross-linked residues	K176 to K24
QINELHHSK	HLA class I histocompatibility antigen, A alpha chain, allele A*26:03 (Homo sapiens, UniProt P04439)	peptide-MHC binding	peptide	concentration not given	binding	inactive
NONO (Homo sapiens, UniProt Q15233)	PSPC1 (Homo sapiens, UniProt Q8WXF1)	cross-linking MS	cell fractions	with: DSSO	cross-linked residues	K109 to K14

For quick reference, copied from above (set 2):
Oligonucleotide	median fluorescence
CGGACATCGCCGGGCATGTCTCCTGACATGCCCGGCGATGTCCGACACTC	11700 a.u.
